Published values gathered from unrelated publications.
A part holds a random share of what one study measured. Positions count from the first letter of the parent shown.

Block 1
Target: Sal-like protein 4, full length isoform A (SALL4, Homo sapiens, UniProt Q9UJQ4, residues 1-1053)
Sequence of UniProt Q9UJQ4 (whole entry, looked up): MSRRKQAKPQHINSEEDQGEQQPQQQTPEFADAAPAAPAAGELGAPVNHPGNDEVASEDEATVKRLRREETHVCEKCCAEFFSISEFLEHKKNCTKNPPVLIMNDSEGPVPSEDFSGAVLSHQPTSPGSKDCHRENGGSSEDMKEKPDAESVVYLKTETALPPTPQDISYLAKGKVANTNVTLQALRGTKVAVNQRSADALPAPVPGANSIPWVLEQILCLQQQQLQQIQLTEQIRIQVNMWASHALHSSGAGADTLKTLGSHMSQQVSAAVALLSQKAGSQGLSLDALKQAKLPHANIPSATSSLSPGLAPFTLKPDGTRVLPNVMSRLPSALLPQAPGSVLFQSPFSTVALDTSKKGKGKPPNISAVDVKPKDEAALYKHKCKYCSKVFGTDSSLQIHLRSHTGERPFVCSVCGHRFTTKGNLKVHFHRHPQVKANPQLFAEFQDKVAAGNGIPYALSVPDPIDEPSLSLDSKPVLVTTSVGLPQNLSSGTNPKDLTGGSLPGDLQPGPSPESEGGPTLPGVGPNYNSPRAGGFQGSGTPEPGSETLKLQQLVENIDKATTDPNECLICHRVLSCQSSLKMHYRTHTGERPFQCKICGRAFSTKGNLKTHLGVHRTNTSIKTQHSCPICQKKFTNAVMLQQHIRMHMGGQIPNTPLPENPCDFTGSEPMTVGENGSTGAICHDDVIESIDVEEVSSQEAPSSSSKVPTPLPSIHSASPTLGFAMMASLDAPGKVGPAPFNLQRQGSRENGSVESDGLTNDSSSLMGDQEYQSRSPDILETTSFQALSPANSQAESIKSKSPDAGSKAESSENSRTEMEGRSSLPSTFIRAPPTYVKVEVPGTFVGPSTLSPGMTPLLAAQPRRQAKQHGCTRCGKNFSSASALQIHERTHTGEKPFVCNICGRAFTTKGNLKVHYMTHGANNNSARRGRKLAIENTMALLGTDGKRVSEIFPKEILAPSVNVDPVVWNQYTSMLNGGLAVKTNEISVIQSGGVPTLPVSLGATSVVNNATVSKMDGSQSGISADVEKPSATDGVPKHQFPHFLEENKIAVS
Method: universal PBM
Form: double-stranded DNA, one strand shown
Matrix: in vitro
Tested at: 600 nM
Setting: 8-mer, flanks averaged, mean of replicates
Reading: higher = stronger binding
Sequence	E-score
ATACACTC	0.217
TATCAGGA	0.21
GCATTTCA	0.187
AACCGCGT	-0.0951
TATGTAGA	0.181
CATAATAG	0.348
AGGAGGCC	-0.287
GTGTTAGA	0.117

Block 2
Target: Probable WRKY transcription factor 33, N-terminal DNA-binding domain (WRKY33, Arabidopsis thaliana, UniProt Q8S8P5, residues 169-264)
Method: DNA-protein interaction ELISA
Form: double-stranded DNA, one strand shown
Matrix: in vitro, bacterial lysate
Tested at: not given
Setting: whole dsDNA probe, crude lysate protein
Relative to: highest signal in screen
Reading: higher = stronger binding
Target sequence (chain): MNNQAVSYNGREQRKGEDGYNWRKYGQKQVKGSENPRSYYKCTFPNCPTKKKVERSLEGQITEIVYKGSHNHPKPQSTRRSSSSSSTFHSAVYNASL
Sequence	relative absorbance
AAAAAAAGGGTCCGGTGCATACATGTAAAA	20.3 % of maximum
AAAAAAGTCGTTACACGTATGCGTGCAAAA	34.8 % of maximum
AAAAAAATTGTATCATACTTCAGTTGAAAA	25.5 % of maximum
AAAAAAGGTCTGGACGATCACCGGGAAAAA	21.5 % of maximum
AAAAAATAGTGTGATTGGTATCCAGTAAAA	12.4 % of maximum
AAAAAACACTTAACTGAGTGGGATTGAAAA	21.9 % of maximum
AAAAAAATCTCACTCCTGGTCCCCATAAAA	16.4 % of maximum
AAAAAACTCTTAAGGAAAGTTCCGACAAAA	25.7 % of maximum

Block 3
Target: ABI1, truncated, D143A, DHFR fusion (Arabidopsis thaliana)
Method: DHFR PCA, deep sequencing
Matrix: yeast
Setting: methotrexate growth selection, single substitutions
Together with: (+)-ABA 4.8 µM
Relative to: wild-type fitted maximum
Reading: higher = stronger binding
Starting sequence: PYL1, truncated, DHFR fusion (Arabidopsis thaliana); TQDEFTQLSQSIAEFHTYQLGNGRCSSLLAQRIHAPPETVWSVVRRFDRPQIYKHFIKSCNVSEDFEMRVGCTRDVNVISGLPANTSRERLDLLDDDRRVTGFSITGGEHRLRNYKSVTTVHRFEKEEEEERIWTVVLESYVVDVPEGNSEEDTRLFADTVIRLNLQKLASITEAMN; partner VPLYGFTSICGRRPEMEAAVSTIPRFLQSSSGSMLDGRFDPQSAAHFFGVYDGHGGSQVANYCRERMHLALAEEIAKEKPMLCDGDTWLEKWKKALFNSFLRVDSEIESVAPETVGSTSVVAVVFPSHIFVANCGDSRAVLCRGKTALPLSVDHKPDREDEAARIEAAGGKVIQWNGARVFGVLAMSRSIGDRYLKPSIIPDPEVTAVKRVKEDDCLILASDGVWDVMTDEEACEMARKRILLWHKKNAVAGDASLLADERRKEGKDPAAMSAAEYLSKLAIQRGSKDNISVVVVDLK
Substitution	relative binding score
S59P	-0.529%
R49P	1.38%
D95I	4.76%
Y141K	-3.57%
G21P	63.7%
Q167M	71.9%
Q19C	57.9%
S140C	-7.32%

Mixed results
Starting sequence: viral docking peptide; CKVKRKLFGSENI
Substitution	target	assay	test system	conditions	how to read	measurement	value
V3A	CCNB1, cyclin fold, Cln2 fusion (human)	yeast growth competition, sequencing	yeast	weak parent motif	relative to: not given, higher = stronger binding	normalised enrichment score	-0.0604

Some of these lines once more (block 3):
Substitution	relative binding score
Y141K	-3.57%
